# Measurements pooled from the literature.
# Protocols differ between the studies behind these lines. Several values in a cell are separate wells, animals, samples, runs or records.
# Target: G protein-coupled receptor kinase 3 (GRK3, Homo sapiens, UniProt P35626)
SMILES,observed,mode,method,concentration,reference,measurement,value
Cc1cnc2nc1Nc1cccc(c1)COC/C=C/COCc1cc(ccc1OCCN1CCOCC1)N2,binding,,competition with immobilised ligand,0.1 µM,,remaining binding,87%
COc1c(Cl)cccc1Nc1c(-c2ccncc2C#C[C@@]2(C)CCCN2C(=O)/C=C/CN(C)C)[nH]c2c1C(=O)NCC2,binding,,competition with immobilised ligand,3 µM,,remaining binding,61%
COCC12C(=O)NC3C4(C(OC)CC1O)C1CC5(O)C(OC)C(O)C(OC(C)=O)(C1C5OC(=O)c1ccccc1)C3(O)C(OC)C24 (stereo not shown),kinase activity,inhibitor,ProQinase kinase profiling,25 µM,control,remaining activity,96% and 94%
Cc1nc2c(F)cc(-c3nc(Nc4ccc(CNC(=O)CCCCCCC(=O)NO)cc4)ncc3F)cc2n1C(C)C,enzyme activity,inhibitor,,1 µM,,inhibition,4%
C=CC(=O)N1Cc2nc(-c3cc(-c4cc(Cl)cnc4Cl)c(F)cc3F)n(-c3ccncn3)c2C1,cell-free assay,inhibitor,,1 µM,,inhibition,5.7%
COc1cc(Nc2nccc(-c3cnn4nc(OC)ccc34)n2)cc(C(F)(F)F)c1,binding,,competition with immobilised ligand,1 µM,,remaining binding,88%
NC(=O)[C@@H](O)C[C@H]1CCc2sc3ncnc(O[C@H]4CC[C@H](N5CCOCC5)CC4)c3c21,enzyme activity,inhibitor,,10 µM,,inhibition,1%
CN1CC[C@@H](COc2cnc(C#N)cc2-c2ccn3nc(NC(=O)C4CC4)cc3c2)C1,enzyme activity,inhibitor,,1 µM,,inhibition,-8%
Nc1ncc(-c2cc(-c3cnn(CC(F)(F)F)c3)ncc2F)nc1C(=O)NC1CNCC(F)C1 (stereo not shown),enzyme activity,,,1 µM,DMSO control,remaining activity,99.2%
O=C(Cc1ccc(OCc2ccccc2)cc1)NC1(C(=O)O)CCN(C(=O)c2ccc(-c3cccc(Cl)c3)cc2)CC1,enzyme activity,inhibitor,,10 µM,,activity vs control,99%

# Some of these lines once more:
SMILES,observed,mode,method,concentration,reference,measurement,value
Nc1ncc(-c2cc(-c3cnn(CC(F)(F)F)c3)ncc2F)nc1C(=O)NC1CNCC(F)C1 (stereo not shown),enzyme activity,,,1 µM,DMSO control,remaining activity,99.2%
